# Experimental data collected from several papers.
# Every numbered part comes from another study and shows a few of its results, in no order. Substitutions count along the parent as printed.
# Sequence of UniProt P11802 (whole entry, looked up): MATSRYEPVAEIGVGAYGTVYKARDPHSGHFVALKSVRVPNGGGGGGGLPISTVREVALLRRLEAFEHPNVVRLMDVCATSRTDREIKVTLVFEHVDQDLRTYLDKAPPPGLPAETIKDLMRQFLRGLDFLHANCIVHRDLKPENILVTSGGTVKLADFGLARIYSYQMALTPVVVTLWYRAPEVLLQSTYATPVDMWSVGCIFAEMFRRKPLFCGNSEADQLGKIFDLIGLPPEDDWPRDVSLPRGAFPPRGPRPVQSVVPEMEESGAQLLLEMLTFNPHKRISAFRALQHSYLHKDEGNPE

# Set 1 — target: CREB3L2, bZIP domain (human); method: DHFR protein complementation; sample: yeast; reference: wild-type JUN-FOS pair; reading: higher = stronger binding
# Notes: single substitutions, most at no-binding floor
# Parent: JUN, bZIP domain (human); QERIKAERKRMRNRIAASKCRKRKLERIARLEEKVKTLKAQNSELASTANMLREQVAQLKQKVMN; partner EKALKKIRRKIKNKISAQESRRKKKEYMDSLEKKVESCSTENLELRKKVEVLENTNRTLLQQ
Variant,binding fitness [natural log]
L38K,-1.56
S47F,-1.5
S43T,-1.48
E44R,-1.47
E44A,-1.4
S43L,-1.41
T37P,-1.52
L31R,-1.53

# Set 2 — method: RNA Bind-n-Seq; form: RNA; sample: in vitro; tested at: 90 pmol; notes: 4-mer, random 30-nt RNA, single round; together with: 3 µM DMDA-PatA, 2 mM ADP, 2 mM phosphate; reference: input library; reading: higher = stronger binding
# Target: ATP-dependent RNA helicase DDX3X, helicase core (DDX3X, Homo sapiens, UniProt O00571, residues 132-607)
# Sequence of UniProt O00571 (132-607, looked up): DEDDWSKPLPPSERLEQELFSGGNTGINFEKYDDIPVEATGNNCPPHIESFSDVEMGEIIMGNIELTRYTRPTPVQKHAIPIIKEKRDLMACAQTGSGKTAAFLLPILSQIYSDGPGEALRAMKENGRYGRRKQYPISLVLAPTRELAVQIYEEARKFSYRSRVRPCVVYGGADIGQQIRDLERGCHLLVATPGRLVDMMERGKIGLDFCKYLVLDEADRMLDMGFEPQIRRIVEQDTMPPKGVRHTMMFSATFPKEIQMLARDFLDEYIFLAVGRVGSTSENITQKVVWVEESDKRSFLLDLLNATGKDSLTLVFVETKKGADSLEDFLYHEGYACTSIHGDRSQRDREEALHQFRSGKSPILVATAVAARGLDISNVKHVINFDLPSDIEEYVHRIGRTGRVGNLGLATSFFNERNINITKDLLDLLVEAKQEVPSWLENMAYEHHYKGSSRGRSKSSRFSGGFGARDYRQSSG
Sequence,4-mer enrichment [fold]
CCAU,0.929
ACUC,0.854
GUGC,0.977
UACU,0.792
AUAG,0.979
GGAG,1.32
AACA,1.01
GAUU,0.868

# Set 3 — method: RNAcompete; form: RNA; sample: in vitro; tested at: 20 nM; notes: 7-mer, probes averaged, single round; reference: mean of 7-mers; reading: higher = stronger binding
# Target: PABPC1L2, full length, GST fusion (mouse, UniProt A0ABA7IW68)
# Residues (chain): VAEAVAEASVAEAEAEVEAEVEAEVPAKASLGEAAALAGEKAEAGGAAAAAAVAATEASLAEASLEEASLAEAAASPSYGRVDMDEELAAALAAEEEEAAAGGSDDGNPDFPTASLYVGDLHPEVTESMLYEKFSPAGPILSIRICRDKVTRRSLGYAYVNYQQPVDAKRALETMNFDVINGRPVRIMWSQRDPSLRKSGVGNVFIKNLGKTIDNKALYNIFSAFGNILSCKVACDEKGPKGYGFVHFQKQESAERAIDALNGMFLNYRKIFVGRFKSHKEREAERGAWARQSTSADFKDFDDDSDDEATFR
Sequence,7-mer Z-score
AGACGGA,-0.0228
GCUUGAA,-0.0953
CUUGUGG,-0.199
GUCAGGC,-0.0844
UGUCAGG,-0.0391
UAUUCCC,-0.494
CAGUCUG,-0.199
CAACCAU,-0.146

# Other studies, line by line
SMILES,target,observed,action,tested at,reference,quantity,value
CCC(=O)Nc1ccc2ncnc(Nc3cccc(Br)c3)c2c1,"Cyclin-dependent kinase 4, with cyclin D3 (CDK4, Homo sapiens, UniProt P11802)",enzyme activity,inhibitor,0.5 µM,control,remaining activity,90.4%
